Results pooled from the literature.
Protocols differ between the studies behind these lines.
Target: Mitogen-activated protein kinase 13 (MAPK13, Homo sapiens, UniProt O15264)

CN1CCN(Cc2ccc(-c3ccc(CO[C@H]4CCC[C@@H]4NC(=O)c4cc(-c5cnn(C)c5)cnc4N)cc3)cc2)CC1 has an inhibition of 5% (enzyme activity, inhibitor; 0.1 µM).
Cc1cnc2nc1Nc1cccc(c1)COC/C=C/COCc1cc(ccc1OCCN1CCOCC1)N2 gave a remaining binding of 88% (binding, competition with immobilised ligand; 0.1 µM).
For Cc1cccc(O[C@H]2CCC[C@@H](C(C)CNCc3ccncc3)C2)c1 (relative stereo), the inhibition was -1% (enzyme activity, inhibitor; 1 µM).
The inhibition of CCn1cc(C(=O)O)c(=O)c2c(N)c(F)c(NC3CCCCC3)cc21 is reported as 8.2% (kinase activity; 0.1 µM, together with: ATP at Km).
COc1cc(Nc2nccc(-c3cnn4nc(OC)ccc34)n2)cc(C(F)(F)F)c1 gave a remaining binding of 98% (binding, competition with immobilised ligand; 1 µM).
NC(=O)[C@@H](O)C[C@H]1CCc2sc3ncnc(O[C@H]4CC[C@H](N5CCOCC5)CC4)c3c21 gave an inhibition of 0% (enzyme activity, inhibitor; 10 µM).
The remaining activity of Cc1ccc(C)c(-c2ccc3nc(NC(=O)C4CCCCC4)nn3c2)c1 is reported as 74% (enzyme activity, Dundee kinase panel; 10 µM).
The remaining binding of CNC1C[S+]2CC[S+]3CC[S+](C1)[Ru-4]321([N]=C=S)[n]2c3ccc(OC)cc3c3c4c(c5cc(F)c[n+]1c5c32)C(=O)NC4=O (stereo not shown) is reported as 49% (KinomeScan; 0.1 µM; reference: untreated).
COc1c(Cl)cccc1Nc1c(-c2ccncc2C#C[C@@]2(C)CCCN2C(=O)/C=C/CN(C)C)[nH]c2c1C(=O)NCC2 has a remaining binding of 94% (binding, competition with immobilised ligand; 3 µM).
The remaining activity of COc1c(OCCCN2CCOCC2)ccc2c1N=C(NC(=O)c1cnc(N)nc1)N1CCN=C21 is reported as 113% (kinase activity, inhibitor; 1 µM; reference: untreated control).
C=CC(=O)N1Cc2nc(-c3cc(-c4cc(Cl)cnc4Cl)c(F)cc3F)n(-c3ccncn3)c2C1 has an inhibition of 6.4% (cell-free assay, inhibitor; 1 µM).
The remaining binding of CC(C)=CC1OC(C)(C)C2C=C3C(=O)C(Cl)=CC(O)C3C3C(O)C4OC4C(=O)C132 (stereo not shown) is reported as 63% (cell-free assay, competition with immobilised ligand; 10 µM).
For Cc1cccc(-c2ccc3nc(NC(=O)C4CCOCC4)nn3c2)c1, the remaining activity was 75% (enzyme activity, Dundee kinase panel; 10 µM).
For COc1ccc(NC(=O)Nc2ccc3c(c2)C(=O)N(C(C)CO)CC(C)C(CN(C)Cc2ccc4c(c2)OCO4)O3)cc1 (stereo not shown), the remaining activity was 81% (kinase activity, KinaseProfiler; 0.03 µM, species human; reference: control).
C=CC(=O)Nc1cccc(-c2cnc3[nH]cc(C(=O)NC(C)(C)C)c3n2)c1 gave an inhibition of 3% (enzyme activity, inhibitor; 0.1 µM).
For Nc1nc(Nc2ccccc2)sc1C(=O)c1ccccc1, the remaining activity was 56% (enzyme activity, inhibitor; 10 µM).
